Assay results pooled from the literature.
Each line is one published result; not all experiments were run side by side.

SMILES	target or system	assay	system	conditions	how to read	measurement	value
O=C(N[C@@H](CC1CCCCC1)C(=O)N[C@@H](C[C@@H]1CCNC1=O)C(=O)C(=O)NC1CC1)OCc1cccc(Cl)c1	feline coronavirus		CRFK, FIPV-1146		reference: CC50 over EC50	therapeutic index	> 273
CCCCCC(=O)OCn1cc(F)c(=O)[nH]c1=O	Caco-2 monolayer	apical to basolateral, Transwell		120 min	reference: compound over 5-fluorouracil	permeability ratio	6.7 fold
COc1ccc(CNc2ccc(-c3ccn4c(CC5CC5)nnc4c3C(F)(F)F)cc2F)cn1			rat Sprague Dawley male, plasma	subcutaneous, 10 mg/kg, 2 h		plasma concentration	1350 ng/mL
O=C[C@H](C[C@@H]1CCNC1=O)NC(=O)[C@H](CC1CCCCC1)NC(=O)OCc1ccccc1	feline coronavirus		CRFK, FIPV-1146		reference: CC50 over EC50	therapeutic index	> 2140
CC[C@H](C)[C@@H]1NC(=O)[C@H](C(C)C)NC(=O)[C@H](Cc2ccccc2)NC(=O)[C@H](Cc2ccccc2)NC(=O)[C@@H]2CCCN2C(=O)[C@@H]2CCCN2C(=O)[C@H]([C@@H](C)CC)NC(=O)[C@H](CC(C)C)NC(=O)[C@H](CCSC)NC1=O	SK-BR-3	LDH release		25 µg/mL, 24 h		cytotoxicity	6%
CCCCn1ccn2c(-c3ccc(NC4CCOCC4)c(Cl)c3)c(C)nc2c1=O			rat liver microsomes	5 µM, 15 min		metabolized fraction	71%
CC[C@H](C)[C@@H]1NC(=O)[C@H](CC(C)C)NC(=O)[C@H](Cc2ccccc2)NC(=O)[C@H](Cc2ccccc2)NC(=O)[C@@H]2CCCN2C(=O)[C@@H]2CCCN2C(=O)[C@H](C(C)C)NC(=O)[C@H](CC(C)C)NC(=O)[C@H]([C@@H](C)CC)NC1=O	A-375	LDH release		125 µM, 48 h		cytotoxicity	10%
FC(F)(F)c1c(-c2ccc(NC3CCOCC3)c(Cl)c2)ccn2c(CC3CC3)nnc12			human liver microsomes	5 µM, 15 min		compound metabolized	18%
Cc1ccc(NC(=O)Nc2ccnc(-c3cccnc3)n2)cc1	MRC5	cell growth or viability				EC50	12 µM
O=C[C@H](C[C@@H]1CCNC1=O)NC(=O)[C@H](CC1CCCCC1)NC(=O)OCc1cccc(Cl)c1	CRFK	cell growth or viability		36 h		CC50	116 µM
CCCCn1ccn2c(-c3ccc(Oc4ccnc(C)c4)c(F)c3)c(C)nc2c1=O			Sprague Dawley rat male, brain	oral, 10 mg/kg, 2 h		brain concentration	343 ng/g
O=C[C@H](C[C@@H]1CCNC1=O)NC(=O)[C@H](CC1CCCCC1)NS(=O)(=O)c1ccc(Cl)cc1	CRFK	cell growth or viability		36 h		CC50	> 150 µM
Clc1nnc(N/N=C/c2ccc(Br)cc2)c2ccccc12	murine peritoneal macrophages				reference: CC50 macrophages over IC50 β-hematin	selectivity index	> 10.6
CCCCn1ccn2c(-c3ccc4[nH]ccc4c3)c(C)nc2c1=O			Sprague Dawley rat male, brain	oral, 10 mg/kg, 4 h		brain concentration	12 ng/g
CC(C)C[C@H](NC(=O)OCc1cccc(Cl)c1)C(=O)N[C@H](C=O)C[C@@H]1CCNC1=O	CRFK	cell growth or viability		36 h		CC50	> 150 µM
